Earlier results as cited in several papers.
Numbers after ± are the reported error. Values after ≈ are worked out from the molar mass of the structure shown.

| Structure (SMILES) | tested on | test | system | conditions | how to read | measurement | result |
| --- | --- | --- | --- | --- | --- | --- | --- |
| Cc1ccccc1-c1cc(N2CC[N+](C)([O-])CC2)ncc1N(C)C(=O)C(C)(C)c1cc(C(F)(F)F)cc(C(F)(F)F)c1 | – | – | healthy volunteers, plasma | oral, 450 mg, single dose, given alone | – | AUC(0-inf) | 2920 ng·h/mL |
| CC(=O)N[C@H](CC(=O)O)C(=O)N[C@H](Cc1c[nH]c2ccccc12)C(=O)N[C@H](Cc1ccccc1)C(=O)N[C@H](CCCCN)C(=O)N[C@H](C)C(=O)N[C@H](Cc1ccccc1)C(=O)N[C@H](Cc1ccc(O)cc1)C(=O)N[C@H](CC(=O)O)C(=O)N[C@H](CCCCN)C(=O)N[C@@H](C(=O)N[C@H](C)C(=O)N[C@H](CCC(=O)O)C(=O)N[C@H](CCCCN)C(=O)N[C@H](Cc1ccccc1)C(=O)N[C@H](CCCCN)C(=O)N[C@H](CCC(=O)O)C(=O)N[C@H](C)C(=O)N[C@H](Cc1ccccc1)C(N)=O)C(C)C | – | – | LDLR-knockout mouse, small intestine | 45 mg/kg/day | baseline: between administration routes | small intestine level ratio | 1.66 ± 0.33 fold |
| CN1CCc2nc(C(=O)N[C@@H]3C[C@@H](C(=O)N(C)C)CC[C@@H]3NC(=O)C(=O)Nc3ccc(Cl)cn3)sc2C1 | – | – | human | share of total clearance | – | non-renal clearance fraction | ~50% |
| CC(=O)N1CCC(NC(=O)NC23CC4CC(C)(CC(C2)c2ccccc24)C3)CC1 | – | – | mouse liver microsomes | 60 min | – | remaining compound | 0% |
| COCCOCCOCCOCCC(=O)NCc1cc(CNC(=O)CCOCCOCCOCCOC)cc(-c2cc3cc4nc(c(OC)c5[nH]c(cc6nc(cc2[nH]3)CC6(C)C)cc5-c2cc(CNC(=O)CCOCCOCCOCCOC)cc(CNC(=O)CCOCCOCCOCCOC)c2)CC4(C)C)c1 | – | – | DMF | room temperature | – | Qy absorption FWHM | 22 nm |
| CN1CCC(C)(C)c2cc3c(-c4ccc(C(=S)N5CCCCC5)s4)c4ccc(=[N+](C)C)cc-4sc3cc21 | – | – | n-octanol/water | – | – | logP | 2.6 |
| CC(=O)O[C@H]1C2=C(C(=O)C(OC(=O)c3ccc(Cl)cc3)=C(C(C)C)C2=O)[C@@]2(C)CCCC(C)(C)[C@@H]2[C@@H]1O | MOLT-3 | – | – | – | – | GI50 | ≤ 5 µM |
| CC1CC(O)(C(C)O)C(=O)OC2CCN3CC=C(COC(=O)C1(C)O)C23 (centres unmarked) | – | – | lactating cow, milk | 16 mg/kg, recovery corrected 20% | – | concentration in milk | 470 to 835 ng/mL |
| O=C([O-])CN1CCN(CC(=O)[O-])CCN(Cc2cc(C#Cc3ccc(OCC(=O)O)cc3)cc(C(=O)[O-])n2)CCN(CC(=O)[O-])CC1.[Eu+3] | – | – | – | – | – | Eu3+ luminescence lifetime | 1.1 ms |
| CCOc1ccc(NC(=S)N(CCO)Cc2cc3cc(C)cc(C)c3[nH]c2=O)cc1 | – | – | mouse | oral, added: 1-aminobenzotriazole (pan-CYP inhibitor) | – | oral bioavailability | 99% |
| CC(=O)N[C@@H](CO)C(=O)N[C@@H](CC(=O)O)C(=O)N[C@@H](CCCCN)C(=O)N1CCC[C@H]1C(=O)O | – | – | – | – | – | circulation half-life | 4.5 min |
| CC(C)OC(=O)[C@H](CO)NCc1cc(Cl)c(OCc2cccc(-c3ccccc3)c2Br)cc1OCc1cccnc1 | – | – | monkey liver S9 | 40 min | – | transformation | 100% |
| CC(C)CCC[C@@H](C)[C@H]1CC[C@H]2[C@@H]3CC=C4C[C@@H](OS(=O)(=O)O)CC[C@]4(C)[C@H]3CC[C@]12C | – | – | – | sulfate group | – | pKa | ~3.3 |
| CC(C)C1=C(O)C(=O)C2=C(C1=O)[C@H](O)[C@@H](O)[C@H]1C(C)(C)CCC[C@]21C | TK-10 | cell growth | – | – | – | GI50 | > 30 µM |
| COC(=O)c1cc(=O)n(C)c2cc(-c3ccc(OC)cc3)sc12 | – | – | dichloromethane | 10 µM | – | excitation maximum | 412 nm |
| CC(C)S(=O)(=O)c1ccc(S(=O)(=O)C(C)C)c(O)c(=O)c1O | – | – | – | – | – | pKa2 | 7.6 |

| Structure (SMILES) | tested on | test | system | conditions | how to read | measurement | result |
| --- | --- | --- | --- | --- | --- | --- | --- |
| NC1=N[C@@]2(c3ccc(F)cc3F)CO[C@@H](CF)C[C@H]2CS1 | – | – | human liver microsomes | – | – | intrinsic clearance | < 8 mL/min/kg |
| O=C1c2ccccc2-c2c1c1ccc([N+](=O)[O-])cc1c(=O)n2C[C@H](O)CO | MCF7 | cell growth | – | breast cancer panel | – | GI50 | 0.016 µM |
| CNc1nc2ccccc2n2c(CCc3ccccc3)cnc12 | – | – | rat | intraperitoneal, dose not given | – | bioavailability | 22.7% |
| COc1ccc(SC2=CC(=O)C(=O)c3c(-c4c(C)cccc4C)cn(S(=O)(=O)c4ccccc4)c32)cc1 | – | – | aqueous buffer with 20% DMSO | – | – | solubility | 2.9 µM (≈ 1.54 µg/mL) |
| C=C[C@@H]1C[C@]1(NC(=O)[C@@H]1C[C@@H](Oc2nccc3ccccc23)CN1C(=O)[C@@H](NC(=O)OC(C)(C)C)C(C)(C)C)C(=O)NS(=O)(=O)C1CC1 | – | – | rat | intravenous, dose not given | – | clearance | 19 mL/min/kg |
| NS(=O)(=O)c1ccc(N2N=C(C(F)(F)F)CC2c2ccc(F)cc2F)cc1 (centres unmarked) | – | – | Beagle dog | oral, 5 mg/kg | – | terminal half-life | 27.8 h |
| C=C[C@@H]1C[C@]1(NC(=O)[C@@H]1C[C@@H](Oc2cc(-c3ccccc3)nc3cc(OC)ccc23)CN1C(=O)[C@@H](NC(=O)OC(C)(C)C)C(C)(C)C)C(=O)NS(=O)(=O)C1CC1 | – | – | dog, plasma | oral, 3 mg/kg | – | AUC | 2 µM·h |
| CN1C(=O)[C@@H](Cc2ccc(O)cc2)NC(=O)CNC(=O)[C@H](Cc2ccc3ccccc3c2)NC(=O)[C@H](CCCNC(=N)N)NC(=O)[C@H]1CCCNC(=O)c1ccc(CNC(=O)CN2CCN(CC(=O)O)CCN(CC(=O)O)CCN(CC(=O)O)CC2)cc1 [gallium-68 labelled] | – | PET dosimetry | human patients, lungs | – | – | absorbed dose coefficient | 0.011 mGy/MBq |
| C[C@@H](OC(=O)Cc1ccc(Cl)c(SC2C(=O)CC(c3c(Cl)cccc3Cl)CC2=O)c1)c1ccccc1 (some centres unmarked) | – | – | plasma | ester bond hydrolysis | – | plasma stability | unstable |
| CN1CCN(c2cc(-c3ccccc3CO)c(N(C)C(=O)C(C)(C)c3cc(C(F)(F)F)cc(C(F)(F)F)c3)cn2)CC1 | – | – | cancer patients, plasma | oral, dose not given, netupitant-palonosetron fixed combination, added: cyclophosphamide 500-1000 mg/m^2 IV | – | AUC(0-inf) | 5820 ng·h/mL |
| COc1cc2c(NC3CCN(C)CC3)nc(N3CCCN(C)CC3)nc2cc1OCc1ccccc1 | – | – | aqueous buffer | pH 6.5 | – | kinetic solubility | 50 to 100 µg/mL (≈ 102 to 204 µM) |
| Cc1ccccc1-c1cc(N2CCNCC2)ncc1N(C)C(=O)C(C)(C)c1cc(C(F)(F)F)cc(C(F)(F)F)c1 | – | – | healthy volunteers, plasma | oral, 450 mg, single dose, added: palonosetron 0.75 mg | – | half-life | 73.8 h |
| C=C[C@@H]1C[C@]1(NC(=O)[C@@H]1C[C@@H](Oc2ncc(OC)c3ccccc23)CN1C(=O)[C@@H](NC(=O)OC(C)(C)C)C(C)(C)C)C(=O)NS(=O)(=O)C1CC1 | – | – | rat, liver | oral, 15 mg/kg, 24 h | – | tissue concentration | 4.2 µM |
| O=C(O)c1cccc(S(=O)(=O)Nc2ccccc2)c1 | – | – | human | clinical mass balance | – | fraction of dose by β-oxidation | 6.1% |
| Oc1cccc(-c2cccc(O)n2)n1.[Cl-].[Cl-].[Ru+2].c1cnc2c(c1)c1c(c3cccnc32)OCCO1.c1cnc2c(c1)c1c(c3cccnc32)OCCO1 | – | – | – | – | – | pKa1 | 5 |
| O=C(CCCCC[N+]#[C][99Tc-5]([C]#[N+]CCCCCC(=O)N[C@H]1C(O)O[C@H](CO)[C@@H](O)[C@@H]1O)([C]#[N+]CCCCCC(=O)N[C@H]1C(O)O[C@H](CO)[C@@H](O)[C@@H]1O)([C]#[N+]CCCCCC(=O)N[C@H]1C(O)O[C@H](CO)[C@@H](O)[C@@H]1O)([C]#[N+]CCCCCC(=O)N[C@H]1C(O)O[C@H](CO)[C@@H](O)[C@@H]1O)[C]#[N+]CCCCCC(=O)N[C@H]1C(O)O[C@H](CO)[C@@H](O)[C@@H]1O)N[C@H]1C(O)O[C@H](CO)[C@@H](O)[C@@H]1O (some centres unmarked) | – | – | mouse, A549 tumour model, tumour | dose not given | – | tumour uptake | 1.48 ± 0.23 %ID/g |

For quick reference, copied from above:
| Structure (SMILES) | tested on | test | system | conditions | how to read | measurement | result |
| --- | --- | --- | --- | --- | --- | --- | --- |
| O=C(O)c1cccc(S(=O)(=O)Nc2ccccc2)c1 | – | – | human | clinical mass balance | – | fraction of dose by β-oxidation | 6.1% |
| CC(=O)N[C@@H](CO)C(=O)N[C@@H](CC(=O)O)C(=O)N[C@@H](CCCCN)C(=O)N1CCC[C@H]1C(=O)O | – | – | – | – | – | circulation half-life | 4.5 min |
| CCOc1ccc(NC(=S)N(CCO)Cc2cc3cc(C)cc(C)c3[nH]c2=O)cc1 | – | – | mouse | oral, added: 1-aminobenzotriazole (pan-CYP inhibitor) | – | oral bioavailability | 99% |
| O=C([O-])CN1CCN(CC(=O)[O-])CCN(Cc2cc(C#Cc3ccc(OCC(=O)O)cc3)cc(C(=O)[O-])n2)CCN(CC(=O)[O-])CC1.[Eu+3] | – | – | – | – | – | Eu3+ luminescence lifetime | 1.1 ms |
